Assay results pooled from the literature.
Lines come from different studies, so protocols differ. ± gives the spread as reported. In brackets after ≈: the same amount, converted by molar mass.
TDP1: Tyrosyl-DNA phosphodiesterase 1 (TDP1, Homo sapiens, UniProt Q9NUW8)
UniProt Q9NUW8, sequence (whole entry, looked up): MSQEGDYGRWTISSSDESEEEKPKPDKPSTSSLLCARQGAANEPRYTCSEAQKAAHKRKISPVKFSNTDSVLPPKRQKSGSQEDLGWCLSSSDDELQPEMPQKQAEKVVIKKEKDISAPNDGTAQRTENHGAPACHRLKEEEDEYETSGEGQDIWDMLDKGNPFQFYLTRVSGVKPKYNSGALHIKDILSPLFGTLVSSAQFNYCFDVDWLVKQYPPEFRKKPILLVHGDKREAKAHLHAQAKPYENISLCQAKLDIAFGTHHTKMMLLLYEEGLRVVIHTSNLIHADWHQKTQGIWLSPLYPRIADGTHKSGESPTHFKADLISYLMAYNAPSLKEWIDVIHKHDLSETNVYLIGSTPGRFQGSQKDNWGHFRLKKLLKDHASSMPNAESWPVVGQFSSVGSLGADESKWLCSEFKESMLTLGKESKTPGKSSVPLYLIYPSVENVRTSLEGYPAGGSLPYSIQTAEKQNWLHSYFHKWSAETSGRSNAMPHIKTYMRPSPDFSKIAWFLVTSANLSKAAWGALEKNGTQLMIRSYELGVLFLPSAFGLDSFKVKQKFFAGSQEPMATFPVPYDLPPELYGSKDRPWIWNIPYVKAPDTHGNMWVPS

Structure (SMILES) | tested on | assay | system | conditions | how to read | endpoint | value
CC(=O)Nc1sc2c(c1SC#N)CCCC2 | Uncharacterized protein (Trypanosoma brucei brucei, UniProt Q386Q8) | enzyme activity, inhibitor, coupled colorimetric | – | added: E. coli pyrophosphatase coupling | – | IC50 | 39.3 µM
COc1cc(C=NOCc2ccc(-c3nc4cc(-c5ccccc5)ccn4c3Nc3ccc(C(=O)O)cc3)cc2)c(O)c(CN2CCOCC2)c1 | TDP1 | enzyme activity, inhibitor | – | 100 µM, unpurified compound | – | inhibition | 32.7%
C/C=C(/C)C(=O)O[C@@H]1C=C(C)CC[C@]2(O)[C@@H](C(C)C)CC(=O)[C@]12C | Helicobacter pylori | microbial growth, broth dilution | – | 7.81 µg/mL | – | inhibition | 0%
C[C@@H](O)[C@@H]1NC(=O)[C@H](CCCCN)NC(=O)[C@@H](Cc2c[nH]c3ccccc23)NC(=O)[C@H](Cc2ccc(O)cc2)NC(=O)[C@@H](NC(=O)[C@@H](Cc2ccccc2)NC(=O)CN2CCN(CC(=O)O)CCN(CC(=O)O)CCN(CC(=O)O)CC2)CSSC[C@@H](C(=O)N[C@H](CO)[C@@H](C)O)NC1=O [gallium-67 labelled] | – | gamma counting | ICR mice, male, blood | iv, 11 kBq/mouse, 3 h | – | tissue uptake | 0.09 ± 0.01 %ID/g
C=CC(=O)N1[C@@H](c2ccc3c(c2)OCO3)c2[nH]c3ccccc3c2C[C@H]1C(=O)N1CCN(C)CC1 | human cyclin E1 wild type-3xFLAG:CDK2 | co-IP with TMT proteomics, item: TUBA1A | – | concentration not given, Q71U36 | reference: wild type DMSO | relative co-enrichment | 106%
C=C(NC(=O)c1csc(-c2nc3c(cc2O)-c2nc(cs2)C(=O)NC(C(C)O)C(=O)NC(=C(C)OC)c2nc(cs2)C(=O)NC2c4nc(cs4)C(=O)NC(COC(=O)c4c5c6c(cccc6n4O)COC(=O)C(OC4CC(C)(O)C(N(C)C)C(C)O4)C2OC5)c2nc-3cs2)n1)C(N)=O (stereo not drawn) | Streptococcus viridans | microbial growth | – | clinical isolate | – | MIC90 | 7.8 ng/mL (≈ 5.43 nM)
CCN(CC)CC(=O)Nc1cccc(-n2cc(-c3ccc4ccc(-c5cn(-c6cccc(NC(=O)CN(CC)CC)c6)nn5)cc4c3)nn2)c1 | RCC4 | PCR angiogenesis array, item: TGFBR1 | – | 5 x IC50, 6 h, normoxia | reference: untreated | fold regulation | -1.34 fold
COCCOCCOCCNC(=O)Cc1cc(CC(=O)N[C@H]2C[C@H]3C(=O)Nc4cc(OCCOCCOCCOC)cc(n4)C(=O)N4CCC[C@H]4C(=O)Nc4cc(OCCOCCOCCOC)cc(n4)C(=O)N4CCC[C@H]4C(=O)Nc4cc(OCCOCCOCCOC)cc(n4)C(=O)N3C2)cc(CC(=O)N[C@H]2C[C@H]3C(=O)Nc4cc(OCCOCCOCCOC)cc(n4)C(=O)N4CCC[C@H]4C(=O)Nc4cc(OCCOCCOCCOC)cc(n4)C(=O)N4CCC[C@H]4C(=O)Nc4cc(OCCOCCOCCOC)cc(n4)C(=O)N3C2)c1 | – | anion binding, ITC | water/methanol 95 vol% (97.7 mol%) | 298 K, added: sodium iodide | – | TΔS | 3.99 ± 0.0717 kcal/mol
CC=C(C)C(=O)OC1CC2C(C=C(C)C3C(OC(C)=O)CC(=O)C13C)OC(=O)C2C (stereo not drawn) | Helicobacter pylori | microbial growth, broth dilution | – | 31.25 µg/mL | – | inhibition | 0%
CN1CCCNC(=O)c2cccc(c2)C(=O)NCCCN(C)CCCNc2cccc3c2C(=O)c2cccc(c2C3=O)NCCC1 | SAS | RNA-Seq, item: LMAN2L mRNA | – | 1 µM, 6 h | reference: untreated cells | log2 fold change | 0.984
COC1CN([C@H]2CC[C@H]([C@@]3(C)Oc4c(Cl)cc(C(=O)NCc5c(SC)cc(C)[nH]c5=O)c(C)c4O3)CC2)C1 | – | RNA-seq, item: RGS2 | human, whole blood | dose not given, 24 h | reference: pretreatment baseline | log2 fold change | 1.27
O=C(O)c1ccc(Nc2c(-c3ccc(CON=Cc4ccccc4)cc3)nc3cc(-c4ccccc4)ccn23)cc1 | TDP1 | enzyme activity, inhibitor | – | 100 µM, unpurified compound | – | inhibition | 22.4%
CC(C)(C)NCC(SS(=O)(=O)O)c1ccccc1 (stereo not drawn) | Schistosoma mansoni | perfusion day 52 | infected Swiss Webster mice | 400 mg/kg single dose, 1248 h, dosed day 7 post-infection | – | liver weight | 4.19 g
Cc1ncsc1-c1ccc(C(C)NC(=O)C2CC(O)CN2C(=O)C(NC(=O)CCCCCCCCCCN2CCCC(Nc3ncc(Cl)c(Nc4ccccc4S(=O)(=O)C(C)C)n3)C2)C(C)(C)C)cc1 (stereo not drawn) | 22Rv1 | RNA-seq, item: MEIS1 mRNA | – | concentration not given | reference: DMSO | log2 fold change | -1.54
C=CC(=O)Nc1cccc(Cn2ncc3cnc(Nc4cnn(CCOC)c4)nc32)c1 | SRPK3 human | binding, KINOMEscan | – | 100 nM | lower = stronger binding | percent of control | 16%
CO[C@@H]1OC[C@@H](O)[C@H](O)[C@H]1O | Helicobacter pylori | microbial growth, broth dilution | – | 0.98 µg/mL | – | inhibition | 0%
CNS(=O)(=O)Nc1nccc(Cc2c(C)c3ccc(Oc4ncccc4F)cc3oc2=O)c1F | COR-L88 | cell viability | – | 7 days | – | IC50 | > 1 µM
Nc1ncc(-c2cc(-c3cnn(CC(F)(F)F)c3)ncc2F)nc1C(=O)NC1CNCC(F)C1 (stereo not drawn) | TGFBR1 | KINOMEscan | – | 1 µM | reference: DMSO control | remaining binding | 83%
c1ccc(-c2n[nH]cc2-c2ccnc3ccccc23)nc1 | CKA2 (Candida albicans) | kinase binding, MIB/MS competition | Candida albicans lysate | 1 µM | reference: DMSO | log2 fold change | 0.03
Cn1ncc2cc(-c3cncc(Cl)c3N3CCC4(CCNC4=O)CC3)ccc21 | LS174T | gene expression, microarray, item: CACNA1H mRNA | – | concentration not given, 4 h | reference: untreated cells | log2 fold change | 1.73
COc1cc(O)ccc1CCC(c1ccc(O)cc1)c1cc2c(c(C)c1O)OC(c1ccc(O)cc1)CC2 (mixture of isomers) | – | – | human blood | 30 µM, added: A23187 | – | 12-HETE level | 9760 ± 3180 pg/mL

Repeated from above:
Structure (SMILES) | tested on | assay | system | conditions | how to read | endpoint | value
CCN(CC)CC(=O)Nc1cccc(-n2cc(-c3ccc4ccc(-c5cn(-c6cccc(NC(=O)CN(CC)CC)c6)nn5)cc4c3)nn2)c1 | RCC4 | PCR angiogenesis array, item: TGFBR1 | – | 5 x IC50, 6 h, normoxia | reference: untreated | fold regulation | -1.34 fold
